Results collected from several papers.
Each line is one published result; not all experiments were run side by side. Several values in a cell are separate wells, animals, samples, runs or records. ± gives the spread as reported.
Ribonucleoside-diphosphate reductase large subunit: Ribonucleoside-diphosphate reductase large subunit (Homo sapiens, UniProt P23921)
Sequence of UniProt P23921 (whole entry, looked up): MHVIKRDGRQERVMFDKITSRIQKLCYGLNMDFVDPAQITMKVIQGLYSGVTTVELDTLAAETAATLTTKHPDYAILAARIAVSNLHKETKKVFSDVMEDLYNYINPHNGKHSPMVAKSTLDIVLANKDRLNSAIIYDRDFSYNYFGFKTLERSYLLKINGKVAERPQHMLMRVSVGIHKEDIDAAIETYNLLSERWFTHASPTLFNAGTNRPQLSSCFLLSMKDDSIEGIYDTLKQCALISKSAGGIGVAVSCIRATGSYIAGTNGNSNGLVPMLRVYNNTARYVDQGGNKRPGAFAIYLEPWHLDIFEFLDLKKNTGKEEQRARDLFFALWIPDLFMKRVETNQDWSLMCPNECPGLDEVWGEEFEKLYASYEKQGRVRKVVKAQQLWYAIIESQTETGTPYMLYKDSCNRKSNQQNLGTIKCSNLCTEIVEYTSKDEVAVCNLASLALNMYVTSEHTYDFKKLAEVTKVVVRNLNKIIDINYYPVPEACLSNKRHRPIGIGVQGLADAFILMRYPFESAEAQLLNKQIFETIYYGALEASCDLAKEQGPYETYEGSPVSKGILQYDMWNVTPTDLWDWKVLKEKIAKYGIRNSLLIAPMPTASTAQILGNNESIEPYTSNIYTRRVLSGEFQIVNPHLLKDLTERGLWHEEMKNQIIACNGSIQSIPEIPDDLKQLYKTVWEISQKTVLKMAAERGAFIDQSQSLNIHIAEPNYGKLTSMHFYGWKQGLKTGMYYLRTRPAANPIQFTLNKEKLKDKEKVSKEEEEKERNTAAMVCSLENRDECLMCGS
Methyl-accepting chemotaxis protein Tlp3: Methyl-accepting chemotaxis protein Tlp3 (Campylobacter jejuni, UniProt Q0P864)
BCL2L1: Bcl-2-like protein 1 (BCL2L1, Homo sapiens, UniProt Q07817)
Sequence of UniProt Q07817 (whole entry, looked up): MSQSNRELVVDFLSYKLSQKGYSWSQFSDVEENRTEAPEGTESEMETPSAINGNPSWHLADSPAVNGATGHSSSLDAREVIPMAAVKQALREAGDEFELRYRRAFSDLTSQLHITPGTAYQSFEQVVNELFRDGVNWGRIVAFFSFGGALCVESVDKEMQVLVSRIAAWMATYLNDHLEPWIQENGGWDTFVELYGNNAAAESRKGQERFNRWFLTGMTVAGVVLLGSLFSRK
B1: calmodulin N-terminal domain; chain AEQLTEEQIAEFKEAFALFDKDGDGTITTKELGTVMRSLGQNPTEAELQDMINEVDADGNGTIDFPEFLSLMARK
Sequence of UniProt P20782 (whole entry, unmodified, looked up): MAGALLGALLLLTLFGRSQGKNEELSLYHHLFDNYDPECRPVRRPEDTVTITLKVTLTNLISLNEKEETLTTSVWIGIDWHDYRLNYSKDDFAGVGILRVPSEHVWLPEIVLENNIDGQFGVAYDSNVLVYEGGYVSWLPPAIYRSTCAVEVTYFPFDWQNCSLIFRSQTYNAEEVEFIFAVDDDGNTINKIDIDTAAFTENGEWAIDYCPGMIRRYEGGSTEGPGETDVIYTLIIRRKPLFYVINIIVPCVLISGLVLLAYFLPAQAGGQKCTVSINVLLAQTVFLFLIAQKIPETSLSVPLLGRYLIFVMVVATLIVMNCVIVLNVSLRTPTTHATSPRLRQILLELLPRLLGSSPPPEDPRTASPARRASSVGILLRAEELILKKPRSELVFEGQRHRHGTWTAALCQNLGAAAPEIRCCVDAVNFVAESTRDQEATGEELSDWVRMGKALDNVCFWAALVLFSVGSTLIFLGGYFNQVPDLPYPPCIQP
Sequence of UniProt P0DMV8 (whole entry, unmodified, looked up): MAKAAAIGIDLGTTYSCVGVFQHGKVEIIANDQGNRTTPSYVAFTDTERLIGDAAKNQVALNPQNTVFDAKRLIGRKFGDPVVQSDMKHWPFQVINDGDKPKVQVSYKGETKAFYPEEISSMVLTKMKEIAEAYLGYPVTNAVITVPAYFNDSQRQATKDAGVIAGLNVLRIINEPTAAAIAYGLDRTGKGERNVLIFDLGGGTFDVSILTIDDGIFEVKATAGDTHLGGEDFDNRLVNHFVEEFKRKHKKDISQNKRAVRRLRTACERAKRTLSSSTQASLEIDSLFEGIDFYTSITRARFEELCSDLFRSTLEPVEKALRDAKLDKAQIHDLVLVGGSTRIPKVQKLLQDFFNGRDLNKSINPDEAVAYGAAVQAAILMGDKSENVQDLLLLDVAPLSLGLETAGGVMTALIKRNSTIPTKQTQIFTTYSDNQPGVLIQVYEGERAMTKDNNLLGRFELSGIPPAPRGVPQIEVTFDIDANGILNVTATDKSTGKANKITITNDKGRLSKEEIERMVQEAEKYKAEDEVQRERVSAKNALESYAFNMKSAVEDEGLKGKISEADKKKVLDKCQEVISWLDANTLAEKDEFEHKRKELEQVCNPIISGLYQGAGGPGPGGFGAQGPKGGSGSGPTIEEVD
Sequence of UniProt P69905 (whole entry, looked up): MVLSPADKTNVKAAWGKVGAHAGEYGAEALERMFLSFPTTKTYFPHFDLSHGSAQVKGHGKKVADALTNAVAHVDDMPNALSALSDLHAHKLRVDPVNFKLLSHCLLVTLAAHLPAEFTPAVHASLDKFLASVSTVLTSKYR
Sequence of UniProt P02649 (whole entry, unmodified, looked up): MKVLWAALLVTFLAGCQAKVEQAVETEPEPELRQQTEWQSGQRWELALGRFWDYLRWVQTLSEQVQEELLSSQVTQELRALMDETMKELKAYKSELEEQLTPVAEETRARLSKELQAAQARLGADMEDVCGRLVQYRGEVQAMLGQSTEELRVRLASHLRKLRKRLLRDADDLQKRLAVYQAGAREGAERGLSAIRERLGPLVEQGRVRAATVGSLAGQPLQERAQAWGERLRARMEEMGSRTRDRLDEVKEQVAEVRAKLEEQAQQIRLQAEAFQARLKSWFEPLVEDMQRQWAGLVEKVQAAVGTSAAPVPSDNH
Sequence of UniProt P08684 (whole entry, unmodified, looked up): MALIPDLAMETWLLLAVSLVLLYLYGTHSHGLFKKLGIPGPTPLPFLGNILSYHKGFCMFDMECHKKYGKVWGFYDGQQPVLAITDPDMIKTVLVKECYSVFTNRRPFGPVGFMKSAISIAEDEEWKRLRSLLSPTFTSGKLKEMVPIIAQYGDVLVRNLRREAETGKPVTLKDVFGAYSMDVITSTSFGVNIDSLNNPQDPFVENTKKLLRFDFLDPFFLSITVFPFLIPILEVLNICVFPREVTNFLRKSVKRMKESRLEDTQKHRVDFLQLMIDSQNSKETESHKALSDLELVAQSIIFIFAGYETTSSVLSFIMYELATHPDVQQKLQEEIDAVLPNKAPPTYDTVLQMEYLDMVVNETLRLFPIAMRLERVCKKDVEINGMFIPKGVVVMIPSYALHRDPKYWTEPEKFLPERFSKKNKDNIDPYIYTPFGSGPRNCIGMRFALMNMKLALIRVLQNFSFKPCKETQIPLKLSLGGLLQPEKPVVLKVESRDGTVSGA
Sequence of UniProt P15090 (whole entry, looked up): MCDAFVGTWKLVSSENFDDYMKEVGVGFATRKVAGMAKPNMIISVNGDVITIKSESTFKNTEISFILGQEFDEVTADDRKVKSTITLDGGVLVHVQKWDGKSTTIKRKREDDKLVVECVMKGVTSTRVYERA
Sequence of UniProt Q8JGN5 (whole entry, looked up): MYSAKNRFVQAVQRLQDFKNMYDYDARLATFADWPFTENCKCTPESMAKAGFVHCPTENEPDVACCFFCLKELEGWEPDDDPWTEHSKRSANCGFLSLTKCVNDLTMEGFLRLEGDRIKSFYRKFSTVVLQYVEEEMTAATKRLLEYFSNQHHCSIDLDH
Sequence of UniProt P04756 (whole entry, unmodified, looked up): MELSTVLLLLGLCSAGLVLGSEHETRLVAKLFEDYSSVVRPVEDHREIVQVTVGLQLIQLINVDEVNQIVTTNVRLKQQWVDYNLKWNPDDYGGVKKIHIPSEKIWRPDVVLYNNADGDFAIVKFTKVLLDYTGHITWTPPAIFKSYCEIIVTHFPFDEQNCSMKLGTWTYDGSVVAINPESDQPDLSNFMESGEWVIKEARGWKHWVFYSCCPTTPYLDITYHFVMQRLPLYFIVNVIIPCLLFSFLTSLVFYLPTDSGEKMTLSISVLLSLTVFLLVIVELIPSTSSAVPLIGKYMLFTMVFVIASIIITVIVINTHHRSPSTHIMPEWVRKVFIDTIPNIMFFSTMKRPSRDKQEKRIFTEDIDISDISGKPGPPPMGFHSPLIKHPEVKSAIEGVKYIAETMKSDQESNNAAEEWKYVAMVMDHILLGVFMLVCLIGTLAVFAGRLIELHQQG
Sequence of UniProt Q06385 (whole entry, looked up): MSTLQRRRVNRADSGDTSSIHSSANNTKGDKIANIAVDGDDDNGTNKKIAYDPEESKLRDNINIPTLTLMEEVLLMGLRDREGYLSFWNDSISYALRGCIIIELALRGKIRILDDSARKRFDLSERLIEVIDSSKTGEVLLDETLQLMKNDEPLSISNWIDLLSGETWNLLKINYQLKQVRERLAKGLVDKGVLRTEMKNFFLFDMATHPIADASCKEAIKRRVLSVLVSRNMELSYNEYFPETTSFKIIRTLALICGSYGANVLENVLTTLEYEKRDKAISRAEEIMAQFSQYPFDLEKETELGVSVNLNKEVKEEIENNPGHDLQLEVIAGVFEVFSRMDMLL
Sequence of UniProt Q6WG30 (whole entry, unmodified, looked up): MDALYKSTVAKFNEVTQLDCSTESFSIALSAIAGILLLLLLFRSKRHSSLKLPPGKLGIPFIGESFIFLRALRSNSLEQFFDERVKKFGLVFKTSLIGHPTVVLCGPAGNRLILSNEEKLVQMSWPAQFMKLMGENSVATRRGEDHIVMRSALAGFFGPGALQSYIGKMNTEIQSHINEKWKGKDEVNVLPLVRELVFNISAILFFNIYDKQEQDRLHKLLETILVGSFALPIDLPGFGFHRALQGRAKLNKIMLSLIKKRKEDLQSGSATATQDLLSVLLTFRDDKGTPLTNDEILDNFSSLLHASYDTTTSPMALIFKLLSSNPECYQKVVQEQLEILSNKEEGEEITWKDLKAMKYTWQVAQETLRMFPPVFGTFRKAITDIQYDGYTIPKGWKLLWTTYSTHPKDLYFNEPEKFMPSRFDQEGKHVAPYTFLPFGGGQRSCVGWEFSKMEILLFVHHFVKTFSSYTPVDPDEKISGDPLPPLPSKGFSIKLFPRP
Sequence of UniProt P06768 (whole entry, looked up): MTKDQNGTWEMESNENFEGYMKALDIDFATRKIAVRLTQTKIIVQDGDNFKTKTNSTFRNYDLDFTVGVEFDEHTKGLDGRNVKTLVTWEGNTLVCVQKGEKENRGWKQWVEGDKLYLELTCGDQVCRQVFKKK

| Molecule | target | test | test system | setting | scale | Kd |
| --- | --- | --- | --- | --- | --- | --- |
| O=c1c(O)c(-c2ccc(O)c(O)c2)oc2cc(O)cc(O)c12 | chemokine CCL2, human and mouse | fluorescence quenching | – | summary over orthologs and variants | – | 3.5 µM |
| O=C(N/N=C/c1cccnc1)c1c(O)ccc2ccccc12 | Ribonucleoside-diphosphate reductase large subunit | binding, fluorescence | – | pH 8 | – | 27.4 µM |
| CC(=O)N[C@@H](CC(C)C)C(=O)N[C@@H](CCCCN)C(=O)N[C@@H](CCCCN)C(=O)N[C@@H](CC(C)C)C(=O)N[C@@H](CC(C)C)C(=O)N[C@@H](CCCCN)C(=O)N[C@@H](CC(C)C)C(=O)N[C@@H](Cc1c[nH]c2ccccc12)C(=O)N[C@@H](CCCCN)C(=O)N[C@@H](CCCCN)C(=O)N[C@@H](CC(C)C)C(=O)N[C@@H](CC(C)C)C(=O)N[C@@H](CCCCN)C(=O)N[C@@H](CC(C)C)C(=O)N[C@@H](C)C(=O)NCC(N)=O | HIV-1 RRE hairpin RNA | competitive fluorescence anisotropy | – | pH 7.4, 20 °C, together with: rhodamine-Rev peptide | – | 0.037 ± 0.0002 µM |
| CC(=O)[C@H]1CC[C@H]2[C@@H]3CCC4=CC(=O)CC[C@]4(C)[C@H]3CC[C@]12C | Cytochrome P450 3A4 (CYP3A4, Homo sapiens, UniProt P08684, S18F) | – | POPC Nanodiscs | pH 7.4, 37 °C, first binding step | – | 7 µM |
| COc1ccc(-c2cnc(-c3ccccc3O)s2)cc1 | Ribonucleoside-diphosphate reductase large subunit | binding, fluorescence | – | pH 8 | – | 70.2 µM |
| CC(=O)N[C@H]1[C@H](O[C@H]2[C@H](O)[C@@H](NC(C)=O)[C@H](O[C@H]3[C@H](O)[C@@H](NC(C)=O)C(O)O[C@@H]3CO)O[C@@H]2CO)O[C@H](CO)[C@@H](O[C@@H]2O[C@H](CO)[C@@H](O[C@@H]3O[C@H](CO)[C@@H](O[C@@H]4O[C@H](CO)[C@@H](O)[C@H](O)[C@H]4NC(C)=O)[C@H](O)[C@H]3NC(C)=O)[C@H](O)[C@H]2NC(C)=O)[C@@H]1O (stereo partly drawn) | Chitinase-3-like protein 2 (CHI3L2, Homo sapiens, UniProt Q15782) | tryptophan fluorescence | – | pH 7.5 | – | 0.6 ± 0.1 µM |
| CC[C@H](C)[C@H](NC(=O)[C@H](CCCNC(=N)N)NC(=O)[C@H](CCCCN)NC(=O)[C@@H]1CCCN1C(=O)[C@@H]1CCC[N+]1(C)C)C(=O)N[C@@H](C)C(=O)N[C@@H](CCCCN)C(=O)N[C@@H](CCCNC(=N)N)C(=O)N[C@@H](CCCNC(=N)N)C(=O)N[C@@H](CO)C(=O)O | N-terminal Xaa-Pro-Lys N-methyltransferase 1 (Homo sapiens, UniProt Q9BV86) | binding, isothermal titration calorimetry | – | pH 8.0, 25 °C | – | 1.3 µM |
| C[N+](C)(C)CCO | Chrnd/Chrna1/Chrne (Mus musculus, UniProt P02716+P04756+P20782, D117H) | binding | – | – | – | 2100 ± 300 µM |
| C[C@H](N)C(=O)N[C@@H](CCCNC(=N)N)C(=O)N[C@H](C(=O)N[C@@H](CCCCN)C(=O)N[C@@H](CCC(N)=O)C(=O)N[C@H](C(=O)N[C@@H](C)C(=O)N[C@@H](CCCNC(=N)N)C(=O)N[C@@H](CCCCN)C(=O)N[C@@H](CO)C(=O)N[C@H](C(=O)NCC(=O)O)[C@@H](C)O)[C@@H](C)O)[C@@H](C)O | Baculoviral IAP repeat-containing protein 5.1-A (birc5.1-a, Xenopus laevis, UniProt Q8JGN5) | ITC | – | pH 6.8, 25 °C | – | 28.7 ± 5.9 µM |
| O=C(NN=Cc1ccc(C[n+]2ccccc2)cc1)c1ccc2ccc3ccc(C(=O)NN=Cc4ccc(C[n+]5ccccc5)cc4)nc3c2n1 | MYC promoter G4 DNA | binding, native ESI-MS | 100 mM trimethylammonium acetate | 1 mM KCl | – | 0.58 µM |
| CCC[C@H](N)C(=O)O | Methyl-accepting chemotaxis protein Tlp3 | binding, ITC | – | – | – | 1530 ± 82 µM |
| OCc1ccc(-c2nn(Cc3ccccc3)c3ccccc23)o1 | soluble guanylate cyclase beta subunit, N-terminal fragment (Manduca sexta, UniProt O77106) | binding, CO titration, global fit | – | 1 µM protein, 1 cm cuvette | – | 21 µM and ~20 µM |
| Nc1ncnc2c1ncn2[C@@H]1O[C@H](COP(=O)(O)OP(=O)(O)O)[C@@H](O)[C@H]1O | kinase | binding, surface plasmon resonance | – | 25 °C, 10 mM MgCl2 | – | 43 ± 6 µM |
| YGAQLDRYAQDF | BCL2L1 | yeast display titration | peptide | 2 h, pH 8.0, room temperature | – | 0.0039 ± 0.0009 µM |
| CC1=CCC[C@@]2(C)CCC3=C(C)CC[C@@H](C[C@H]12)C3(C)C | Taxadiene 5-alpha hydroxylase, N-terminal Δ1-24; CPR fusion (Taxus cuspidata, UniProt Q6WG30) | binding, UV-Vis type I spectral titration | – | 32 °C, CYP-CPR fusion, no NADPH | – | 2.1 ± 0.4 µM |
| COc1ccc(OCc2ccccn2)c(C=O)c1 | Hemoglobin subunit alpha, with beta chain (HBA1, Homo sapiens, UniProt P69905) | binding, cation-exchange HPLC-UV/Vis | – | kinetic Kd from koff/kon | – | 140 µM |
| CCCCCCCCCCCCCCCC(=O)OC[C@H](COP(=O)(O)O[C@@H]1[C@H](O)[C@H](OP(=O)(O)O)[C@@H](O)[C@H](O)[C@H]1O)OC(=O)CCCCCCCCCCCCCCC | Vacuolar protein sorting-associated protein 74 (VPS74, Saccharomyces cerevisiae, UniProt Q06385) | surface plasmon resonance | DOPC vesicles 3 mol% lipid | pH 7.5, 25 °C | – | > 50 µM |
| O=C(NNC(=O)c1c(O)ccc2ccccc12)c1cccnc1 | Ribonucleoside-diphosphate reductase large subunit | binding, fluorescence | – | – | – | 4.1 µM |
| CC[n+]1c(-c2ccccc2)c2cc(N)ccc2c2ccc(N)cc21 | HIV-1 nucleocapsid-SL3 RNA complex | binding, ESI-FTMS | – | pH 7.5 | – | 6.4 ± 0.9 µM |
| CC(C)C[C@H](N)C(=O)O | Methyl-accepting chemotaxis protein Tlp3 | binding, ITC | – | – | – | 676 ± 32 µM |
| Nc1ncnc2c1ncn2[C@@H]1O[C@H](COP(=O)(O)OP(=O)(O)NP(=O)(O)O)[C@@H](O)[C@H]1O | Heat shock 70 kDa protein 1A, phosphorylated (HSPA1A, Homo sapiens, UniProt P0DMV8, T66S) | binding, isothermal titration calorimetry | – | pH 7.5, Mg2+ free | – | 2.47 µM |
| O=C(O)C(F)(F)C(F)(F)C(F)(F)C(F)(F)C(F)(F)C(F)(F)C(F)(F)C(F)(F)C(F)(F)C(F)(F)C(F)(F)C(F)(F)C(F)(F)F | FABP4 (Homo sapiens, UniProt P15090) | ligand displacement, fluorescence | – | – | – | < 1 µM |
| Nc1ncnc2c1ncn2-c1ccc(/C=N/NC(=O)c2ccccc2O)cc1 | Ribonucleoside-diphosphate reductase large subunit | binding, fluorescence | – | – | – | 4 µM |
| B1 (calmodulin N-terminal domain) | rat NaV1.2 IQ motif | FRET biosensor titration | – | pH 7.4, 22 °C, apo, no calcium | lower limit | > 100 µM |
| CC(C)[C@H](N)C(=O)O | Methyl-accepting chemotaxis protein Tlp3, sensing domain (Campylobacter jejuni, UniProt Q0P864) | binding, thermal shift | – | 25 °C, zero heat capacity change, ITC enthalpy | – | 285 ± 74 µM |
| AGAQLHRFADDY | BCL2L1 | yeast display titration | peptide | 2 h, pH 8.0, room temperature | – | 0.03 ± 0.009 µM |
| CC(=O)N[C@@H](Cc1c[nH]c2ccccc12)C(=O)N[C@@H](CCCCN)C(=O)N[C@@H](CCCCN)C(=O)N[C@@H](CC(C)C)C(=O)N[C@@H](CC(C)C)C(=O)N[C@@H](CCCCN)C(=O)N[C@@H](CC(C)C)C(=O)N[C@@H](CC(C)C)C(=O)N[C@@H](CCCCN)C(=O)N[C@@H](CCCCN)C(=O)N[C@@H](CC(C)C)C(=O)N[C@@H](CC(C)C)C(=O)N[C@@H](CCCCN)C(=O)N[C@@H](CC(C)C)C(=O)N[C@@H](C)C(=O)NCC(N)=O | HIV-1 RRE hairpin RNA | competitive fluorescence anisotropy | – | pH 7.4, 20 °C, together with: rhodamine-Rev peptide | – | 0.0025 ± 0.0003 µM |
| CC1=C(/C=C/C(C)=C/C=C/C(C)=C\CO)C(C)(C)CCC1 | Retinol-binding protein 2 (Rbp2, Rattus norvegicus, UniProt P06768) | binding, fluorescence titration | – | pH 7.4, 25 °C | – | 0.03 ± 0.012 µM |
| CC(=O)N[C@@H](CC(C)C)C(=O)N[C@@H](CCCCN)C(=O)N[C@@H](CCCCN)C(=O)N[C@@H](Cc1c[nH]c2ccccc12)C(=O)N[C@@H](CC(C)C)C(=O)N[C@@H](CCCCN)C(=O)N[C@@H](CC(C)C)C(=O)N[C@@H](CC(C)C)C(=O)N[C@@H](CCCCN)C(=O)N[C@@H](CCCCN)C(=O)N[C@@H](CC(C)C)C(=O)N[C@@H](CC(C)C)C(=O)N[C@@H](CCCCN)C(=O)N[C@@H](CC(C)C)C(=O)N[C@@H](C)C(=O)NCC(N)=O | HIV-1 TAR hairpin RNA | competitive fluorescence anisotropy | – | pH 7.4, 20 °C, together with: rhodamine-Rev peptide | – | 0.034 ± 0.0009 µM |
| Cn1nc(CC(=O)Nc2cc(S(=O)(=O)Nc3cccc(Cl)c3)ccc2O)c2ccccc2c1=O | APOE (Homo sapiens, UniProt P02649, C130R/S157C) | fluorescence quenching titration | Alexa488-labelled protein, PBS | pH 7.4, 25 °C, label at position 139 | – | 9.3 ± 1.1 µM |

A few entries again:
| Molecule | target | test | test system | setting | scale | Kd |
| --- | --- | --- | --- | --- | --- | --- |
| B1 (calmodulin N-terminal domain) | rat NaV1.2 IQ motif | FRET biosensor titration | – | pH 7.4, 22 °C, apo, no calcium | lower limit | > 100 µM |
| CC(C)[C@H](N)C(=O)O | Methyl-accepting chemotaxis protein Tlp3, sensing domain (Campylobacter jejuni, UniProt Q0P864) | binding, thermal shift | – | 25 °C, zero heat capacity change, ITC enthalpy | – | 285 ± 74 µM |
| AGAQLHRFADDY | BCL2L1 | yeast display titration | peptide | 2 h, pH 8.0, room temperature | – | 0.03 ± 0.009 µM |
| CC(=O)N[C@@H](Cc1c[nH]c2ccccc12)C(=O)N[C@@H](CCCCN)C(=O)N[C@@H](CCCCN)C(=O)N[C@@H](CC(C)C)C(=O)N[C@@H](CC(C)C)C(=O)N[C@@H](CCCCN)C(=O)N[C@@H](CC(C)C)C(=O)N[C@@H](CC(C)C)C(=O)N[C@@H](CCCCN)C(=O)N[C@@H](CCCCN)C(=O)N[C@@H](CC(C)C)C(=O)N[C@@H](CC(C)C)C(=O)N[C@@H](CCCCN)C(=O)N[C@@H](CC(C)C)C(=O)N[C@@H](C)C(=O)NCC(N)=O | HIV-1 RRE hairpin RNA | competitive fluorescence anisotropy | – | pH 7.4, 20 °C, together with: rhodamine-Rev peptide | – | 0.0025 ± 0.0003 µM |
